Measurements gathered from unrelated publications.
Compare with care: the assays were run in different laboratories.
Cell line: NCI-H460

CC(C)c1ccc(N(C)c2ccc3c(c2)OCC[C@H]3CNc2cnccc2C(=O)O)cc1 — IC50 (cell growth or viability, ATP luminescence; 7 days): 11.6 nM
Cc1ccc([N+](=O)[O-])cc1S(=O)(=O)N(C)/N=C/c1cnc2ccc(Br)cn12 — IC50 (cell growth or viability): 10 nM
CCC(=[NH+][Pt-2]1([Cl])([O]C(C)=O)([O]C(C)=O)[NH]CCC[NH]1)N(C)CCNc1c2ccccc2[nH+]c2ccccc12.O=[N+]([O-])O.O=[N+]([O-])O — IC50 (cell growth or viability, MTS; 72 h): 11.1 nM
COc1cc(S(=O)(=O)Oc2ccc3[nH]c(C)cc3c2F)cc(OC)c1OC — IC50 (cell growth or viability; 72 h): 8.34 nM
CCOc1cncc(-c2ccc(NC(=O)C3(c4ccnc(NS(=O)(=O)C5CC5)n4)CCOCC3)nc2)n1 — IC50 (cell growth or viability, ATP luminescence; 72 h): 1460 nM
Oc1ccc(C#Cc2c(O)ccc3c2C(c2ccc(O)cc2)(c2ccc(O)cc2)c2cc(O)ccc2-3)cc1 — IC50 (cell growth or viability, MTT; 48 h): 14300 nM
CC(=O)OC[C@H]1O[C@@H](Oc2ccc(C#[C][Pt+])cc2)[C@H](OC(C)=O)[C@@H](OC(C)=O)[C@@H]1OC(C)=O.O=S(=O)([O-])C(F)(F)F.c1ccc(-c2cccc(-c3ccccn3)n2)nc1 — IC50 (cell growth or viability; 24 h): > 100000 nM
CCC(=[N][Pt-2]1([Cl])[NH2+]CCC[NH2+]1)N(C)CCNc1c2ccccc2nc2ccccc12.O=[N+]([O-])O.O=[N+]([O-])O — IC50 (cell growth or viability, MTS; 72 h): 2.16 nM
O=Cc1ccc(-c2ccc(O)cc2)c(C(=C2C=CC(=O)C=C2)c2ccc(O)cc2)c1C#Cc1ccc(O)cc1 — IC50 (cell growth or viability, MTT; 48 h): 11900 nM
CCCCCCCC/C=C/CCCCCCCC(=O)[O][Pt-2]1([OH])([Cl])([NH+]=C(CC)N(C)CCNc2c3ccccc3[nH+]c3ccccc23)[NH]CCC[NH]1.O=[N+]([O-])O.O=[N+]([O-])O — IC50 (cell growth or viability, MTS; 72 h): 33.7 nM
Cn1ncc(-c2ccc3c(=O)[nH]nc(CN)c3c2)c1-c1c(F)c(Cl)cc(OC2CC2)c1C#N — IC50 (cell viability, inhibitor, CellTiter-Glo; 120 h, baseline-subtracted): 1310 nM
O=Cc1ccc2c(c1C#Cc1ccc(O)cc1)C(c1ccc(O)cc1)(c1ccc(O)cc1)c1cc(O)ccc1-2 — IC50 (cell growth or viability, MTT; 48 h): > 50000 nM
